Results of several laboratories.
“And” joins repeats or separate records; there may be more than shown. ± gives the spread as reported.
MGLL: Monoglyceride lipase (MGLL, Homo sapiens, UniProt Q99685)
EPHX2: Bifunctional epoxide hydrolase 2 (EPHX2, Homo sapiens, UniProt P34913)
gag-pol integrase: Gag-Pol polyprotein, integrase (gag-pol, Human immunodeficiency virus 1, UniProt P12497)
CACNA1I: Voltage-dependent T-type calcium channel subunit alpha-1I (CACNA1I, Homo sapiens, UniProt Q9P0X4)
Tpo: Thyroid peroxidase (Tpo, Rattus norvegicus, UniProt P14650)
CNGA1: Cyclic nucleotide-gated channel alpha-1 (CNGA1, Bos taurus, UniProt Q00194)

C=C(CC)C(=O)c1ccc(OCC(=O)O)c(Cl)c1Cl — IC50 (Glutathione S-transferase A1 (GSTA1, Homo sapiens, UniProt P08263); enzyme activity, inhibitor, CDNB-GSH conjugation, measured: CDNB-GSH conjugate; pH 6.8, with: CDNB): 1100 nM
O=C(OC(C(F)(F)F)C(F)(F)F)N1CCC(Cn2cnc3ccccc32)CC1 — IC50 (MGLL; enzyme activity, inhibitor): 780 nM
COc1ccc(C[C@@H](NC(=O)OCC2c3ccccc3-c3ccccc32)C(=O)O)cc1 — IC50 (Bifunctional epoxide hydrolase 2, N-terminal phosphatase domain (EPHX2, Homo sapiens, UniProt P34913); N-terminal phosphatase activity; human; 10 min preincubation, with: AttoPhos 15 µM): 6500 nM
C[C@]12C[C@@H]3C[C@](C)(C1)C[C@@](NC(=O)Nc1ccc(C(=O)N4CCC[C@H](C(=O)NCCCC(=O)NO)C4)cc1F)(C3)C2 — IC50 (EPHX2; enzyme activity, inhibitor, fluorescence): 0.3 nM
C[C@@H](CNCc1ccccc1)N1C[C@H](CCCNC(=N)N)N(CCc2cccc(F)c2)C1=S — IC50 (Neuropeptide Y receptor type 2 (NPY2R, Homo sapiens, UniProt P49146); receptor activation, antagonist, FLIPR): > 10000 nM
COc1ccc2c(CC(=O)NCCCC[C@H](N)C(=O)N[C@@H](CCC(=O)O)C(=O)N[C@@H](Cc3ccc(CS(=O)(=O)O)cc3)C(=O)N[C@@H](CCC(=O)O)C(=O)N[C@@H](Cc3ccc(CS(=O)(=O)O)cc3)C(=O)N[C@@H](CC(C)C)C(=O)N[C@@H](CC(=O)O)C(=O)N[C@@H](Cc3ccc(CS(=O)(=O)O)cc3)C(=O)N[C@@H](CC(=O)O)C(=O)N[C@@H](Cc3ccccc3)C(=O)N[C@@H](CC(C)C)C(=O)N3CCC[C@H]3C(=O)N[C@@H](CCC(=O)O)C(=O)N[C@H](C(=O)N[C@@H](CCC(=O)O)C(=O)N3CCC[C@H]3C(=O)N[C@@H](CC(C)C)C(=O)O)[C@@H](C)O[C@H]3O[C@H](CO[C@@H]4O[C@H](CO)[C@@H](O[C@@H]5O[C@H](CO)[C@H](O)[C@H](O[C@]6(C(=O)O)C[C@H](O)[C@@H](NC(C)=O)[C@H]([C@H](O)[C@H](O)CO)O6)[C@H]5O)[C@H](O[C@@H]5O[C@@H](C)[C@@H](O)[C@@H](O)[C@@H]5O)[C@H]4NC(C)=O)[C@H](O)[C@H](O[C@@H]4O[C@H](CO)[C@H](O)[C@H](O)[C@H]4O)[C@H]3NC(C)=O)cc(=O)oc2c1 — IC50 (P-selectin (SELP, Homo sapiens, UniProt P16109); chimera binding to neutrophils, inhibitor, flow cytometry; human neutrophils; with: SELP Fc chimera 2 µg/mL): ~14000 nM
O=C(O)c1ccc(/C=C2\SC(=O)N(c3cccc(C(F)(F)F)c3)C2=O)cc1 — IC50 (Cystic fibrosis transmembrane conductance regulator (CFTR, Homo sapiens, UniProt P13569); ion current, inhibitor): ~1000 nM
Nc1ncnc2c1ncn2[C@@H]1O[C@H](COP(=O)(O)OP(=O)(O)C(Cl)(Cl)P(=O)(O)O)[C@@H](O)[C@H]1O — IC50 (Fibroblast growth factor receptor 2 (FGFR2, Homo sapiens, UniProt P21802); enzyme activity, inhibitor, radiometric): ~22 nM and 22 nM
CC(C)Oc1ccc(-c2c[nH]cc2CN(C)CCO)cc1 — IC50 (Protein arginine N-methyltransferase 8 (PRMT8, Homo sapiens, UniProt Q9NR22); enzyme activity, scintillation proximity; with: 3H-SAM): > 10000 nM
Cc1nc2ccccc2n1Cc1ccc(C(=O)NO)cc1 — IC50 (Protein deacetylase HDAC6 (HDAC6, Homo sapiens, UniProt Q9UBN7); enzyme activity, inhibitor): 4.65 nM
sodium copper chlorophyllin — IC50 (Thiosulfate sulfurtransferase (TST, Bos taurus, UniProt P00586); enzyme activity, inhibitor; Rho counter-screen): 11000 nM
O=C1/C(=C/c2ccccc2)C(N2CCOCC2)c2ccccc21 (stereo not shown) — IC50 (Dual specificity protein phosphatase 6 (Homo sapiens, UniProt Q16828); ERK phosphorylation restoration, inhibitor, chemical complementation; HeLa transfected with c-Myc-DUSP6; 15 min, with: TPA): 50800 ± 4100 nM
CC12CC3CC(C)(C1)CC(Nc1c(Nc4ccc(C(=O)N5CCC[C@H](C(=O)NCCCC(=O)NO)C5)cc4F)c(=O)c1=O)(C3)C2 — IC50 (EPHX2; enzyme activity, inhibitor, fluorescence): 269 nM
COc1ccc(-c2cn(CCN3CCOCC3)c3ncnc(N)c23)cc1OC — IC50 (Calcium-dependent protein kinase 1 (CDPK1, Plasmodium falciparum, UniProt P62344); enzyme activity, inhibitor): > 2000 nM
NC(=O)c1nc(Nc2ccccc2)sc1NC(=O)C1CCCCC1 — IC50 (Phosphatidylinositol 4-phosphate 5-kinase type-1 gamma (PIP5K1C, Homo sapiens, UniProt O60331); enzyme activity, inhibitor, microfluidic mobility shift; with: ATP 15 µM): 120 nM
CCOC(=O)/C(O)=C/C(=O)c1cn(Cc2ccc(F)cc2)c2cc(Cl)ccc2c1=O — IC50 (gag-pol integrase; 3'-processing, inhibitor, gel-based; with: Mg2+): > 333000 nM
C[C@]12CC3CC(Nc4c(Nc5ccc(CN6CCC[C@H](C(=O)NCCCC(=O)NO)C6)cc5)c(=O)c4=O)(C1)C[C@@](C)(C3)C2 — IC50 (EPHX2; enzyme activity, inhibitor, fluorescence): 37.7 nM
[H]/N=C(\N/C(=N/[H])NCCCCCCNC(=N)NC(=N)Nc1ccc(Cl)cc1)Nc1ccc(Cl)cc1 — IC50 (Enhanced intracellular survival protein (Gordonia bronchialis, UniProt Z9YDP2SNH3)): 4400 ± 600 nM
COc1ccc(CN2CCN(C(c3ccc(F)cc3)c3ccc(F)cc3)CC2)c(OC)c1OC — IC50 (CACNA1I; inhibitor, FLIPR calcium; HEK293 with GCaMP6s-CAAX, Kir2.3; with: KCl at EC90): 1300 nM
Tannic acid — IC50 (firefly luciferase; luminescence signal, inhibitor, ADP detection luminescence): > 77000 nM
O=C(O)c1nn(Cc2ccc(Cl)cc2Cl)c2ccccc12 — IC50 (Monocarboxylate transporter 4 (SLC16A3, Homo sapiens, UniProt O15427); L-lactate transport, inhibitor; Xenopus laevis oocytes; pH 6.0, 22 °C, with: L-lactate 0.5 mM): 40400 ± 2200 nM
O=C(OCC(F)(F)F)N1CC(N2CCN(C(=O)c3nccs3)CC2)C1 — IC50 (Monoglyceride lipase (Rattus norvegicus, UniProt Q8R431); enzyme activity, inhibitor; with preincubation): > 1000 nM
OC1CCCc2cc(OCc3ccc(Cl)cc3)ccc21 (stereo not shown) — IC50 (Amine oxidase [flavin-containing] B (MAOB, Homo sapiens, UniProt P27338); enzyme activity, inhibitor, fluorescence): 7.5 nM
NS(=O)(=O)c1ccc(N2N=C(C(F)(F)F)C[C@H]2c2ccc(F)cc2F)cc1 — IC50 (Prostaglandin G/H synthase 1 (Canis lupus familiaris, UniProt Q8HZR1); TXB2 formation, inhibitor; clotting dog whole blood; 1 h, 37 °C): 23900 nM
CN1CCC[C@H]1COc1nc2c(c(N3CCN(S(C)(=O)=O)[C@@H](CC#N)C3)n1)CCN(c1cccc3cccc(Cl)c13)C2 — IC50 (GTPase KRas (KRAS, Homo sapiens, UniProt P01116, G12C); cell-based): 3000 nM
CCOC(=O)/C(O)=C/C(=O)c1cn(Cc2ccc(F)cc2)c2cc(F)ccc2c1=O — IC50 (gag-pol integrase; 3'-processing, inhibitor, gel-based; with: Mg2+): > 333000 nM
COC(=O)C1=C(C)NC(C)=C([N+](=O)[O-])[C@H]1c1ccccc1C(F)(F)F — IC50 (Voltage-dependent P/Q-type calcium channel subunit alpha-1A, with β4/α2δ1 (Homo sapiens, UniProt O00555); calcium current, blocker, automated patch clamp; holding potential -90 mV; last pulse of train, with: 0.1 Hz pulse train): 10000 ± 2600 nM
Cc1ccc(S(=O)(=O)Nc2cccc(-c3nnc(C4CCCCC4)o3)c2)cc1 — IC50 (α-amylase; enzyme activity, inhibitor): 6010 nM
CC(C)NCc1ccc(C[C@@H]2NC(=O)[C@@H](N(C)C(=O)c3ccc4ccccc4c3)NC(=O)[C@H](Cc3ccccc3)NC(=O)[C@H](N)CSSC[C@@H](C(=O)N[C@@H](Cc3ccc4ccccc4c3)C(N)=O)NC(=O)[C@H](Cc3ccccc3)NC2=O)cc1 — IC50 (Somatostatin receptor type 1 (SSTR1, Homo sapiens, UniProt P30872); ligand displacement, radioligand; cell membranes): 1.2 nM
Oc1ccc(OCc2ccccc2)cc1 — IC50 (Tpo; enzyme activity, inhibitor, LC-MS/MS, measured: monoiodotyrosine; rat thyroid microsomes; with: L-tyrosine substrate): 10200 nM and 7520 nM
COc1ccc2nc(/C=C/c3cccc([N+](=O)[O-])c3)n(-c3ccc(C(=O)O)cc3)c(=O)c2c1 — IC50 (Glutamate NMDA receptor; Grin1/Grin2c (Rattus norvegicus, UniProt P35439+Q00961); ion current, two-electrode voltage clamp; oocytes): 7100 nM
CCN(CC)CC1CCN(c2ncc3ncnc(Nc4ccc(F)c(Cl)c4)c3n2)CC1 — IC50 (Proto-oncogene tyrosine-protein kinase Src (SRC, Homo sapiens, UniProt P12931); enzyme activity, inhibitor, ADP detection): > 10000 nM
O=C(OC(C(F)(F)F)C(F)(F)F)N1CCC(CCn2ccc3ccccc32)CC1 — IC50 (MGLL; enzyme activity, inhibitor): 620 nM and 640 nM
O=C(COc1cccc(-c2ccccc2)c1)Nc1cc(Cl)ccc1C(=O)O — IC50 (Transient receptor potential cation channel subfamily M member 4 (TRPM4, Homo sapiens, UniProt Q8TD43); ion flux, inhibitor, fluorescence): 2600 nM
CCCn1cnc2c(NCc3ccc(C)s3)nc(N[C@H](CC)CO)nc21 — IC50 (CACNA1I; inhibitor, FLIPR calcium; HEK293 with GCaMP6s-CAAX, Kir2.3; with: KCl at EC90): 20000 nM
O=C(O[C@@H]1Cc2c(O)cc(O)cc2O[C@@H]1c1cc(O)c(O)c(O)c1)c1cc(O)c(O)c(O)c1 — IC50 (Tpo; enzyme activity, LC-MS/MS, measured: monoiodotyrosine; rat thyroid microsomes; with: L-tyrosine substrate): 320 ± 60 nM
CCCCCCCC(=O)OC[C@H](CO)OC(=O)CCCCCCC — IC50 (CNGA1; cGMP-activated current, inhibitor, inside-out patch, Xenopus oocytes; single patch, with: cGMP 30 µM): 410 nM
O=S(=O)(NCCNCC=Cc1ccc(Br)cc1)c1cccc2cnccc12 — IC50 (cGMP-dependent protein kinase 1, isoform alpha (PRKG1, Bos taurus, UniProt P00516); kinase activity, inhibitor, radiometric; with: ATP 100 µM and peptide 11 µM and cGMP): 55 nM
C[C@]12C[C@@H]3C[C@](C)(C1)C[C@@](NC(=O)Nc1ccc(C(=O)N4CCC[C@H](C(=O)NCCCCCC(=O)NO)C4)cc1F)(C3)C2 — IC50 (EPHX2; enzyme activity, inhibitor, fluorescence): 0.4 nM
CCCCCCCCCC[N+](CC)(CC)CC — IC50 (CNGA1; mean open time, blocker, single-channel recording; +70 mV, with: cGMP 2 mM): 16000 ± 4000 nM
